Results gathered from unrelated publications.
Compare with care: the assays were run in different laboratories.
PFF0160c: Dihydroorotate dehydrogenase (quinone), mitochondrial (PFF0160c, Plasmodium falciparum, UniProt Q08210)
Chain of UniProt Q08210 (whole entry, looked up): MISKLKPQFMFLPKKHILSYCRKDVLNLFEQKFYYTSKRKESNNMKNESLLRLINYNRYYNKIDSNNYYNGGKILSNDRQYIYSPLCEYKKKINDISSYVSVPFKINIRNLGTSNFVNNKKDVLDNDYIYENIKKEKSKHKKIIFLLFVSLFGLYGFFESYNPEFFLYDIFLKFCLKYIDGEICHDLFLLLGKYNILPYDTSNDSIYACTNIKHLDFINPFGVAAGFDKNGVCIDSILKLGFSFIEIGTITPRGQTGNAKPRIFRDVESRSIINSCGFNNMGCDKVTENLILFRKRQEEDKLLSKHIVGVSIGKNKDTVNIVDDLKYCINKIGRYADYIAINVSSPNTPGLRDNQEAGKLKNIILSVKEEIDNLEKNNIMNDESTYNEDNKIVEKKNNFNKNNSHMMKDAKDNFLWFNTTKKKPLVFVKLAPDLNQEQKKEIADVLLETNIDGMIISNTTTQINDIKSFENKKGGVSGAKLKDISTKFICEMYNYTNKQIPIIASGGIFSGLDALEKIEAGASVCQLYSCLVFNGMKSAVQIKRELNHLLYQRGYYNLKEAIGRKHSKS
Chain of UniProt Q8N4C8 (whole entry, looked up): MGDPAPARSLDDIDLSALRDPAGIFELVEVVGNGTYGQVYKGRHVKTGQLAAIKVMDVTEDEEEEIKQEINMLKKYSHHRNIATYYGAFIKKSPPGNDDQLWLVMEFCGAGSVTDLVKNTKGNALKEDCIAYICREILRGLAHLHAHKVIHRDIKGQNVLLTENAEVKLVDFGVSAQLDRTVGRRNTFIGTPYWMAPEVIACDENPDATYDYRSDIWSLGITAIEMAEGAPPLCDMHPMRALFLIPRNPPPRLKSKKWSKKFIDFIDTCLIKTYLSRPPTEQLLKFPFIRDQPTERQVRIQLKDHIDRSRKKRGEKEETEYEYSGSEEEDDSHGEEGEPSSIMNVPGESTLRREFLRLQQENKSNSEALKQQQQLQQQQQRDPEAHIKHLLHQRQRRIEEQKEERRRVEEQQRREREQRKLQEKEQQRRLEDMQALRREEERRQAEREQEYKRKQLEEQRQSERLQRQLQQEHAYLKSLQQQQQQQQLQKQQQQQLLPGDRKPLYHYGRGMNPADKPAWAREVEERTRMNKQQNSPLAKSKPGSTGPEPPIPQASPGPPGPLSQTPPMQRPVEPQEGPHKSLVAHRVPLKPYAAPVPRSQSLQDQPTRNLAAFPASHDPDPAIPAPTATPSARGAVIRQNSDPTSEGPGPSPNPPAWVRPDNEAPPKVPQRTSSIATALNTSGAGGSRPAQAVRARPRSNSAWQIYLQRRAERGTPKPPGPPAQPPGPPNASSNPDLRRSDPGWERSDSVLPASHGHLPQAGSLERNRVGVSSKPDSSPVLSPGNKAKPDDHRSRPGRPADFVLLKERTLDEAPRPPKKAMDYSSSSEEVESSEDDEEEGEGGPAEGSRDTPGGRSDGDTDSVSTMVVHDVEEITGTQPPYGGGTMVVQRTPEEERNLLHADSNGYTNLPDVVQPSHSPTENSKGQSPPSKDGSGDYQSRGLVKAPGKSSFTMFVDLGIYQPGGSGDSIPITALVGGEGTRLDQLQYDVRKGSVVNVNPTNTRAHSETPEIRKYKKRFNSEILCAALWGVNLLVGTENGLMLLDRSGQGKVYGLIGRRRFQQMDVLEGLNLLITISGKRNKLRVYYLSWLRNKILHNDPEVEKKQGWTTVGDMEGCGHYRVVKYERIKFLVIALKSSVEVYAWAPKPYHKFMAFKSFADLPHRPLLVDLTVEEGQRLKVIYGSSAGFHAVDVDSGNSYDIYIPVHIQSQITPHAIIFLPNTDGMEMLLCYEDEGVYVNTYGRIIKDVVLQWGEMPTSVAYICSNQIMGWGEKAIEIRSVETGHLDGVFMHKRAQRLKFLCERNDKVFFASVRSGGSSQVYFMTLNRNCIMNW

Nc1c(C(=O)N2CCOCC2)sc2ncccc12 — IC50 (Mycobacterium tuberculosis; microbial growth; H37RV): > 100 µM
CCCCCCC(=O)NCc1c(O)c(=O)cc(C)n1C — IC50 (Pseudomonas aeruginosa; microbial growth; PAO1): 3.66 µM
COc1ccc(-c2cc(C(F)(F)F)c3c(N)c(C(=O)N4C5CCCC4COC5)sc3n2)cc1 — IC50 (Mycobacterium tuberculosis; microbial growth; H37RV): > 100 µM
CCCCCCC#Cc1cncc(-c2nnc(SCc3cc([N+](=O)[O-])cc([N+](=O)[O-])c3)n2C2CC2)c1 — IC50 (Mycobacterium tuberculosis; microbial growth; ERDMAN): 0.95 µM
NC(=O)c1ncn([C@@H]2O[C@H](CO)[C@@H](O)[C@H]2O)n1 — IC50 (Influenza A virus; viral replication; MDCK, H3N2): 1.92 µg/mL
C#CCCCCC(=O)NCc1c(O)c(=O)cc(C)n1C — IC50 (Pseudomonas aeruginosa; microbial growth; PAO1): > 100 µM
CCOC(=O)C1=C[C@@H](OC(CC)CC)[C@H](NC(C)=O)[C@@H](N)C1 — IC50 (Influenza A virus; viral replication; MDCK, H3N2): 1.63 µg/mL
Cc1noc(-c2cccs2)c1C(=O)NC(C)c1cccc2ccccc12 (centres unmarked) — IC50 (PFF0160c; enzyme activity, inhibitor, absorbance): 0.424 µM
CC(=O)N1C(=CNc2cccc(Cc3ccccc3)c2)C(=O)c2cccnc21 — IC50 (unidentified influenza virus; viral replication, inhibitor; MDCK, PR/8): 120 µM
CC(Oc1cccc(Cl)c1)C(=O)N1CCc2ccccc21 (centres unmarked) — IC50 (PFF0160c; enzyme activity, inhibitor, absorbance): 0.442 µM
[2H]c1c([2H])c([C@]2([2H])CCCN2C(=O)C(C)(C)Oc2ccc3cn[nH]c3c2)c([2H])c([2H])c1C([2H])([2H])[2H] — remaining binding (Misshapen-like kinase 1 (MINK1, Homo sapiens, UniProt Q8N4C8); binding, competition with immobilised ligand; 1 µM): 100%

For quick reference, copied from above:
[2H]c1c([2H])c([C@]2([2H])CCCN2C(=O)C(C)(C)Oc2ccc3cn[nH]c3c2)c([2H])c([2H])c1C([2H])([2H])[2H] — remaining binding (Misshapen-like kinase 1 (MINK1, Homo sapiens, UniProt Q8N4C8); binding, competition with immobilised ligand; 1 µM): 100%
